# Assay results collected from several papers.
# Parts stem from different laboratories: compare values within a part only. Changes are numbered by the printed parent chain.

# Set 1 — method: protein binding microarray; form: double-stranded DNA, one strand shown; sample: in vitro; concentration: not given; reference: not given; direction: higher = stronger binding
# Target: Histone acetyltransferase KAT6A, both winged helices, GST fusion (KAT6A, Homo sapiens, UniProt Q92794, residues 1-181)
# Setting: 8-mer, flanks averaged, mean of 2 arrays, mostly near background
# Target sequence (chain): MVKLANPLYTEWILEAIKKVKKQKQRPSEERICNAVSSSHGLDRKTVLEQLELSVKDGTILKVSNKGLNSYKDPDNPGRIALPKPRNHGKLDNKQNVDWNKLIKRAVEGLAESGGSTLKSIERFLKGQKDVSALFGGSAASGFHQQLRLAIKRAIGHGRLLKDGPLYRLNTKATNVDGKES
Strand,E-score
CACATCGA,-0.0642
ACTCATGA,0.00734
AGCCAACA,-0.074
ATCTGAAT,-0.0964
CGGGAGCC,0.135
CGTGGATA,0.126
ACCCGAGC,0.173
AGCCCTCC,-0.131
CCTCGGGC,0.0546
CCAACCCC,-0.233
GATCCTCA,-0.0365
GTCGCACA,0.136
AGACTTTA,-0.0876
GGTTGATA,-0.0101
GAAGCTTC,-0.0879
ATGTCGGA,0.0848
CAGGAAGG,-0.125
AAATAAGG,-0.219
AGAGAATA,-0.0527
ATAGCGCC,0.212
CACTAGAA,-0.11
CCGCTGGA,0.197

# Set 2 — method: RNA Bind-n-Seq; form: RNA; sample: in vitro; concentration: 365 nM; reference: no-protein control; direction: higher = stronger binding
# Target: RNA binding protein fox-1 homolog 2, RRM domain, GST-SBP tag (RBFOX2, Homo sapiens, UniProt O43251-10, residues 100-194)
# Setting: natural RNA segment, single round, ends assumed
# Construct (chain): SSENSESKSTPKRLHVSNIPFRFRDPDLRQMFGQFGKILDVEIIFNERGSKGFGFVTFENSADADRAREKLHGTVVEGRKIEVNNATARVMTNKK
Strand,RBNS enrichment (R)
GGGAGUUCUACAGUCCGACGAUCGGAGGGAAGGGUUUCUCUAUUAAAAUGCAUUCGUUGUGUUUUUUAAGAUAGUGUAACUUGCUUAAAUUUCUUAUGUGACAUUAACAAAUAAAAAAGCUCUUUUAAUAUUGUGGAAUUCUCGGGUGCCAA,1.15
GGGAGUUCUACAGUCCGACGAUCAGGGUGAGGGUGGCUUGGGAACCGACCCAGUGAUCAUGCCUACUUUCUUCUUUGUAUCUCCCUCCUUCCCAGCCCACCCGGGCAGCAGACUCUGAUGGAAGGAAGGUGCCUGGAAUUCUCGGGUGCCAA,0.41
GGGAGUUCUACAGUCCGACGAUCAACAUUUCUGGACAGUACCUGAUUGUAUUUUUUUUUUAAAUAAAAGCACAAGUACUUUUGAGUUUGUAUUUUGCUUUGAAUUGUUGAGUCUGAAUUUCACCAAAGCCAAUUGGAAUUCUCGGGUGCCAA,0.483
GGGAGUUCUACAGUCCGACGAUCUAUAAGCAAAUUAAGAAUUACUCAUUCAAAUUUUUCCAGUGUUAAUCGAUAAUAAAUGAUGGCUUGAUACACUACAGAAAGUGUAUUCUUGUUUAAAAGAUGUCUGAAACUGGAAUUCUCGGGUGCCAA,0.82
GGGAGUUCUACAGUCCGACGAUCACGUUUCUACCCUUCAAUUAGCUGCACUGUUUUCUAAUGUGCUGUAGAGUUUGGAAAUAAUUUAUGCAAGUGUUUGGUUCCCAUGUUUACAAUUUUUACAGCUUUCCUAGUGGAAUUCUCGGGUGCCAA,2.91
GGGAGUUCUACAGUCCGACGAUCAGGUGCUUGAGAAAGUGUACACUGCAGAACUGCCCAUUCUCAUUACUGUGUCCUAUUUUAUUCAUGCCUGUGUGUUUUUCUUAAGUAUGAAUUCUAGAUACAGCUACUUAUGGAAUUCUCGGGUGCCAA,2.09
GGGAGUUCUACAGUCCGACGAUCGAGGAAGAUCCUUGGUUAGCGAUGAUCUUGGAGGUGGACUAAGUCCAGAGCCAUCCCUGAAGCCAGGUGACUGUCCCAAGGUCUUCCCUCCCGGGAGCCCAACCUUUCGAUGGAAUUCUCGGGUGCCAA,0.194
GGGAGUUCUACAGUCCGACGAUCAACAUUGUUUCACUUGGCGGCAUGUUUUUGAAACCUGCUUUAUAGUAACUGGGUGAUUGCCAUUGUGGUAGAGCUUCCACUGCUGUUUAUAAUCUGAGAGAGUUAAUCUCUGGAAUUCUCGGGUGCCAA,0.505
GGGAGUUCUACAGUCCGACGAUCGUGUUUUUUGUCCAUUAAAGUGUAUCUUUGUCCAUCCUAUAAGAUUAAAGGAAAGAAAAAGCAUCUCAAAUGAGUGUAAGUUGUUCUUGAGAAAAAAAUGUAUCAGACUUUGGAAUUCUCGGGUGCCAA,0.667
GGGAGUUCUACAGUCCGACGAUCAGGAAACCGGAUGCCAACUUCCCACGGGUUUACUGUGCCUCUGGCAUCCAGGGUCUUCAGUUUCCCGUGCUUGGCUCUUUGGGGUUCAUGUGUCAUGUUGCUUAUGACCCUGGAAUUCUCGGGUGCCAA,0.233
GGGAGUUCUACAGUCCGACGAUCUAUAGCCCCUGUCCUUCAUGUGUCUGGCCAUGUAGACUCUCAGGCAUCCUGUCCAUUUUUAACCUGUGUUCUGCCAGUAUGACUGUGUAGCUCAGUCAUAUUGAACAGGGUGGAAUUCUCGGGUGCCAA,0.563
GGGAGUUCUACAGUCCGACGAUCAAUUCCUAAUUUCUCUAGAUAUUUAAGAAUGGCACACACUUUAAAUAUUUAUGGGUGAAUUGAUGCCACAAAAGUAAUAUGAUUGCCCACCUCAACCUGGCAUUCUGUGUUGGAAUUCUCGGGUGCCAA,0.899

# Set 3 — target: CCNB1, cyclin fold, Cln2 fusion (human); method: yeast growth competition, sequencing; sample: yeast; setting: weak parent motif; reference: not given; direction: higher = stronger binding
# Starting sequence: PLK5 docking peptide (human); IFRKVGQRLLTQC
Substitution,normalised enrichment score
V5A,-0.0359
I1A,0.0808
L9A,0.434
K4A,-0.0019
G6A,0.0371
L10A,0.215
R3A,0.233

# Set 4 — target: UBE2E3 UBC core domain (UniProt Q969T4); method: yeast two-hybrid; sample: yeast; setting: mostly zero background; reference: not given; direction: higher = stronger interaction
# Chain of UniProt Q969T4 (whole entry, looked up): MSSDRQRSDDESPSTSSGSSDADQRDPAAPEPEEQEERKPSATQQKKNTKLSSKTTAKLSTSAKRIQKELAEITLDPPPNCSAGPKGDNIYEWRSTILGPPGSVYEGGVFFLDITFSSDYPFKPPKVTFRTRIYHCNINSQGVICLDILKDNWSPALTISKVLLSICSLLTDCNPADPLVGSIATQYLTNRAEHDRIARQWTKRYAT
# B1: RFPL3 RING domain (UniProt O75679); chain MAALFQEASSCPVCSDYLEKPMSLECGCTVCLKCINSLQKEPHGEDLLCCCCSMVSQRNKIRP
# B2: PJA2 RING domain (UniProt O43164); chain DHTAIGQEQCCPICCSEYIKDDIATELPCHHFFHKPCVSIWLQKSGTCPVCRRHFPPAVIEA
# B3: TRIM28 RING domain (UniProt Q13263); chain GAEALELLEHCGVCRERLRPEREPRLLPCLHSACSACLGPAAPAAANSSGDGGAAGDGTVVDCPVCKQQCFSKDIVE
# B4: UBE4B RING domain (UniProt O95155); chain KNARAEIDYSDAPDEFRDPLMDTLMTDPVRLPSGTIMDRSIILRHLLNSPTDPFNRQTLTESMLEPVPELKEQIQAWMREKQNSDH
# B5: TRIM68 RING domain (UniProt Q6AZZ1); chain LVEAIVEEVACPICMTFLREPMSIDCGHSFCHSCLSGLWEIPGESQNWGYTCPLCRAPVQPRNLRP
# B6: RMND5B RING domain (UniProt Q96G75); chain MKCWYHSVFACPILRQQTSDSNPPIKLICGHVISRDALNKLINGGKLKCPYCPMEQNPADGK
# B7: MDM2 RING domain (UniProt Q00987); chain TQDKEESVESSLPLNAIEPCVICQGRPKNGCIVHGKTGHLMACFTCAKKLKKRNKPCPVCRQPIQMIVLTYFP
# B8: RNF10 RING domain (UniProt Q8N5U6); chain VRICSHEVPSCPICLYPPTAAKITRCGHIFCWACILHYLSLSEKTWSKCPICYSSVHKKDLKS
# B9: NHLRC1 RING domain (UniProt Q6VVB1); chain MREAEISLLECKVCFEKFGHRQQRRPRNLSCGHVVCLACVAALAHPRTLALECPFCRRACRGCDTSD
Sequence,lacZ reporter activity
B1 (RFPL3 RING domain),0
B2 (PJA2 RING domain),2190
B3 (TRIM28 RING domain),0
B4 (UBE4B RING domain),0
B5 (TRIM68 RING domain),0
B6 (RMND5B RING domain),5480
B7 (MDM2 RING domain),0
MEEMEEELKCPVCGSFYREPIILPCSHNLCQACARNILVQTPESESPQSHRAAGSGVSDY (TRIM9 RING domain (UniProt Q9C026)),0
EIKDYKARLTCPCCNMRKKDAVLTKCFHVFCFECVKTRYDTRQRKCPKCNAAFGANDFHR (RNF20 RING domain (UniProt Q5VTR2)),0
GSEEEEIPFRCFICRQAFQNPVVTKCRHYFCESCALEHFRATPRCYICDQPTGGIFNPA (RNF113B RING domain (UniProt Q8IZP6)),0
B8 (RNF10 RING domain),0
B9 (NHLRC1 RING domain),0
EDVLSKDAGECAICLEELQQGDTIARLPCLCIYHKGCIDEWFEVNRSCPEHPSD (ZNRF2 RING domain (UniProt Q8NHG8)),0
KITELNPHLMCALCGGYFIDATTIVECLHSFCKTCIVRYLETNKYCPMCDVQVHKTRPLL (PCGF2 RING domain (UniProt P35227)),0

# Set 5 — method: universal PBM; form: double-stranded DNA, one strand shown; sample: in vitro; concentration: not given; direction: higher = stronger binding
# Target: Sal-like protein 4, full length isoform B (SALL4, Homo sapiens, UniProt Q9UJQ4-2, residues 1-616)
# Setting: 8-mer, flanks averaged, mean of replicates
# Target sequence (chain): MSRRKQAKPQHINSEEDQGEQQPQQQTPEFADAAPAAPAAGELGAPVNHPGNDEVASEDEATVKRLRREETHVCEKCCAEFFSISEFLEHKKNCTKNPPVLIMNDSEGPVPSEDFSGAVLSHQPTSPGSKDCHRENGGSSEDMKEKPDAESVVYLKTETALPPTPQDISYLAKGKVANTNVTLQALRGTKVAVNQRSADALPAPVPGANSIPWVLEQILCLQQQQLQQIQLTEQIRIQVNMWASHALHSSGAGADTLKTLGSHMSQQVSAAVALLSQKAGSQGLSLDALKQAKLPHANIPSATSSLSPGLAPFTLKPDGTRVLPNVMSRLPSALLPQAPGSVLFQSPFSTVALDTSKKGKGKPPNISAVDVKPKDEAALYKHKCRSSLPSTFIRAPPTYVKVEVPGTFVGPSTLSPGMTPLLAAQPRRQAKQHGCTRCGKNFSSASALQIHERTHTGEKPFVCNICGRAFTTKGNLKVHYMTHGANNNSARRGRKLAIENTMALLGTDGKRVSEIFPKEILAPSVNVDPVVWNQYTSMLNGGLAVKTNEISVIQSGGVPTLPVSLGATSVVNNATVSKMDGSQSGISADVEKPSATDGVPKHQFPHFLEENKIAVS
Strand,E-score
GACCCGTC,-0.317
CTTAACGA,-0.0148
ATAGCACG,0.0626
GAGACCCA,-0.22
GGGCCTCA,-0.292
TAGCATCA,0.0809
ACGCAGAA,-0.0633
CAGAACTG,-0.0988
ATCTTCAC,0.0382
ACAGCAGA,0.0309
CGGGTGGC,-0.332
AACTGGAG,-0.106
GCGCATTA,0.139
ATTCTCCC,-0.0512
ACGGGTCG,-0.156
CTGTCACC,-0.107
CTTTCTCA,0.214

# Set 6 — method: DHFR PCA, deep sequencing; sample: yeast; added: (+)-ABA 0.032 µM; reference: wild-type fitted maximum; direction: higher = stronger binding
# Target: ABI1, truncated, D143A, DHFR fusion (Arabidopsis thaliana)
# Setting: methotrexate growth selection, single substitutions
# Starting sequence: PYL1, truncated, DHFR fusion (Arabidopsis thaliana); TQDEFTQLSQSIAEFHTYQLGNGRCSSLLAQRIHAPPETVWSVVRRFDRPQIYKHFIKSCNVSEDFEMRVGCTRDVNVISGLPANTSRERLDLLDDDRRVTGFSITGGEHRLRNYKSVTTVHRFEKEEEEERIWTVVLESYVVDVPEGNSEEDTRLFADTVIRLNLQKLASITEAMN
Substitution,relative binding score [%]
K58L,-2.65
R88F,6.91
V161M,67.8
T17G,-1.97
G107F,-1.19
Q10Y,-0.112
Q167P,0.328
R88V,32.8
C60T,3.51
D95N,-2.2
E109Y,6.22
V100Y,-1.04
P36N,15.3
N165Y,0.0137
V76I,41.3
Q19I,2.26
Q31V,-2.46
F66A,2.25
Y18E,-5.87
G107W,-2.24
R113E,3.79
D48N,5.38
L112A,1.13
R111D,0.428
S80T,31.2

# Repeated from above (set 1):
Strand,E-score
AGCCAACA,-0.074
ACCCGAGC,0.173
CCTCGGGC,0.0546
ACTCATGA,0.00734
ATGTCGGA,0.0848
CCAACCCC,-0.233
GATCCTCA,-0.0365
CCGCTGGA,0.197
